# Results from different studies.
# Lines come from different studies, so protocols differ. Numbers after ± are the reported error.
# CYP3A7: Cytochrome P450 3A7 (CYP3A7, Homo sapiens, UniProt P24462)
# Sequence of UniProt P24462 (whole entry, looked up): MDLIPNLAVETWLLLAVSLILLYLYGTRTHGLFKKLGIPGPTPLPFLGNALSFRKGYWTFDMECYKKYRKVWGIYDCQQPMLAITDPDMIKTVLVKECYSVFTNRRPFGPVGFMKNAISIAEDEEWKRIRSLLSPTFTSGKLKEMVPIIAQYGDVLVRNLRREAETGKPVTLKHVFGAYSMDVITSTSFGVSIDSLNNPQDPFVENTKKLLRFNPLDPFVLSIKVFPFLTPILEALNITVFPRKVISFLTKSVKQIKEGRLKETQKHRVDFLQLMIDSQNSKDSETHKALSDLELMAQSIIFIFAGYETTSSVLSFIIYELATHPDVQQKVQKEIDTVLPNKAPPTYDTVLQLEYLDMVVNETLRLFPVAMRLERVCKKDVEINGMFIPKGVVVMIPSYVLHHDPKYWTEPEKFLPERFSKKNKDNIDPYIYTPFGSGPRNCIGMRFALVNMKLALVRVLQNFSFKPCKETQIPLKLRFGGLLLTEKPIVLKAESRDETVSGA
# Trypsin: Trypsin (Sus scrofa, UniProt P00761)
# Sequence of UniProt P00761 (whole entry, looked up): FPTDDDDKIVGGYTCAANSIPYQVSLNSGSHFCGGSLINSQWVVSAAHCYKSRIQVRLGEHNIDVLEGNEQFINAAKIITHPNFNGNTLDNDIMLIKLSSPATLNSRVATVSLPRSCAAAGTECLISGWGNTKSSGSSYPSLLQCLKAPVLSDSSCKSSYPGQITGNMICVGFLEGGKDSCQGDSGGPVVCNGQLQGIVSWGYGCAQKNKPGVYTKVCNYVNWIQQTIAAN
# UGT1A4: UDP-glucuronosyltransferase 1A4 (UGT1A4, Homo sapiens, UniProt P22310)
# Sequence of UniProt P22310 (whole entry, looked up): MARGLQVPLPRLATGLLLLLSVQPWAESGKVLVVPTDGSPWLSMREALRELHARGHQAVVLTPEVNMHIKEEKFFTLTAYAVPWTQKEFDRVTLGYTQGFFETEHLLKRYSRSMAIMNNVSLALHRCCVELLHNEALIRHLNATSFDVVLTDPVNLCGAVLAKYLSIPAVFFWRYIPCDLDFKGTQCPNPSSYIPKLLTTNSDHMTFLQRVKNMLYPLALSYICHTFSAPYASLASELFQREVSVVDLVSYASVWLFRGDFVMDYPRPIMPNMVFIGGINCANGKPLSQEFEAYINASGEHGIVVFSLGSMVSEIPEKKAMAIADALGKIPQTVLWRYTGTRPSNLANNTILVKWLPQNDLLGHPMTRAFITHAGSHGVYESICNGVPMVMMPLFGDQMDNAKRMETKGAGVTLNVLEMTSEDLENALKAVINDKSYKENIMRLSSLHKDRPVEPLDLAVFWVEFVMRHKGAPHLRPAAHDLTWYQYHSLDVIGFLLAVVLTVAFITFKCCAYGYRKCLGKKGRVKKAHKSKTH
# Sequence of UniProt P08183 (whole entry, looked up): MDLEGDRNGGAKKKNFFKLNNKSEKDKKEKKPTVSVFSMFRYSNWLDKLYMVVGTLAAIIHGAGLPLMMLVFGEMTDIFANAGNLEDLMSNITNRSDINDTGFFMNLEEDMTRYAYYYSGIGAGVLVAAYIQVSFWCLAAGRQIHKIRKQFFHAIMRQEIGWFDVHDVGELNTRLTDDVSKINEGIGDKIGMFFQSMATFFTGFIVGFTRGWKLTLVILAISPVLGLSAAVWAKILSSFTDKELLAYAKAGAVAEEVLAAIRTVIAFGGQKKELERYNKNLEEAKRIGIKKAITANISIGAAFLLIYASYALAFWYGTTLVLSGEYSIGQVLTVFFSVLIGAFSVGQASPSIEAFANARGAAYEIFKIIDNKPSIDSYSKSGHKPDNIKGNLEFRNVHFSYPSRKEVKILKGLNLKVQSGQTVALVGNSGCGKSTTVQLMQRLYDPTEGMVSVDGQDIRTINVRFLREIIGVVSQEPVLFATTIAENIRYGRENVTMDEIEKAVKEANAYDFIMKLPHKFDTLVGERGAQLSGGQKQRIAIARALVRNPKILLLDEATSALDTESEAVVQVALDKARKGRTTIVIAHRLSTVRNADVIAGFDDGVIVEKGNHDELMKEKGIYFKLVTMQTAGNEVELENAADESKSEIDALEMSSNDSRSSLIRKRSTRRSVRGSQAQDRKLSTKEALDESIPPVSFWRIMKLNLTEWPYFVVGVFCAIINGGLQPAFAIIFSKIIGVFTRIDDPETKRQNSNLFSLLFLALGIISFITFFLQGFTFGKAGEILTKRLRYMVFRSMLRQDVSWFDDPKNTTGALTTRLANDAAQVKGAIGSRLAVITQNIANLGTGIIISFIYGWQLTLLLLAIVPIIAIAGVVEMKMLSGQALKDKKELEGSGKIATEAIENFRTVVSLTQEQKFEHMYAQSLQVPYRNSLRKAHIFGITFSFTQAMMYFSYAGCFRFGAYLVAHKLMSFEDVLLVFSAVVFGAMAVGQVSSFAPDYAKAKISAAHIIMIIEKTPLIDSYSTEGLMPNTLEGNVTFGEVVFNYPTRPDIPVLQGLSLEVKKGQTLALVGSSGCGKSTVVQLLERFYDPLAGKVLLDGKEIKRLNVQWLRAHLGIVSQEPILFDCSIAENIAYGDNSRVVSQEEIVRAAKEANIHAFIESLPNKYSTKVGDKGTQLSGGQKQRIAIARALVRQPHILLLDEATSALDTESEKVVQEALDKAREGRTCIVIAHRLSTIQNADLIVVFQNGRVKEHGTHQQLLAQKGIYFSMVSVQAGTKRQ
# Sequence of UniProt P02754 (whole entry, looked up): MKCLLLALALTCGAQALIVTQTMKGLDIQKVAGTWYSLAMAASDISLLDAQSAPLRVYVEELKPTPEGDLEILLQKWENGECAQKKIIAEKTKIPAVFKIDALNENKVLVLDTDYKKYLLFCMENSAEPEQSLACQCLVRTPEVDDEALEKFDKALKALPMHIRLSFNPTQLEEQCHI
# Sequence of UniProt Q96JM7 (whole entry, looked up): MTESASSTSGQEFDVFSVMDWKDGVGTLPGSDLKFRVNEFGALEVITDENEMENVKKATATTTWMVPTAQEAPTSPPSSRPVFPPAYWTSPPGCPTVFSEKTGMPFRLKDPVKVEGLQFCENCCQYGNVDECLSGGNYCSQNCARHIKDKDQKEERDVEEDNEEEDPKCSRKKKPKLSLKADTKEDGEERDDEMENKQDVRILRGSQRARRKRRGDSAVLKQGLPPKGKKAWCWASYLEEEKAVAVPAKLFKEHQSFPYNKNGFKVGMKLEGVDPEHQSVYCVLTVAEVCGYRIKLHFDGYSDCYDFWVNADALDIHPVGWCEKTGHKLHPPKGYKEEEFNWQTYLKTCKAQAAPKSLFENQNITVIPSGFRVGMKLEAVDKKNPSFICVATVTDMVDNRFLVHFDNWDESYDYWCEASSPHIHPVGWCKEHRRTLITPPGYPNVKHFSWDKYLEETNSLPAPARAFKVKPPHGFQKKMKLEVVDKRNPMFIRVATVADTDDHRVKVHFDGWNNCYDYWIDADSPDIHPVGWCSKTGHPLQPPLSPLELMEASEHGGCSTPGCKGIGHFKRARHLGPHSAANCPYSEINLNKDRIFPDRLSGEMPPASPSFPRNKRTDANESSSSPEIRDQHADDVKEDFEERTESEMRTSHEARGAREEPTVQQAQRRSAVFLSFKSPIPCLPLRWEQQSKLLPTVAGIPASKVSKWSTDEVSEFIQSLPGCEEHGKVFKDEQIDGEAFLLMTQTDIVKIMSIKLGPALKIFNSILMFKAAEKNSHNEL
# Sequence of UniProt Q12809 (whole entry, looked up): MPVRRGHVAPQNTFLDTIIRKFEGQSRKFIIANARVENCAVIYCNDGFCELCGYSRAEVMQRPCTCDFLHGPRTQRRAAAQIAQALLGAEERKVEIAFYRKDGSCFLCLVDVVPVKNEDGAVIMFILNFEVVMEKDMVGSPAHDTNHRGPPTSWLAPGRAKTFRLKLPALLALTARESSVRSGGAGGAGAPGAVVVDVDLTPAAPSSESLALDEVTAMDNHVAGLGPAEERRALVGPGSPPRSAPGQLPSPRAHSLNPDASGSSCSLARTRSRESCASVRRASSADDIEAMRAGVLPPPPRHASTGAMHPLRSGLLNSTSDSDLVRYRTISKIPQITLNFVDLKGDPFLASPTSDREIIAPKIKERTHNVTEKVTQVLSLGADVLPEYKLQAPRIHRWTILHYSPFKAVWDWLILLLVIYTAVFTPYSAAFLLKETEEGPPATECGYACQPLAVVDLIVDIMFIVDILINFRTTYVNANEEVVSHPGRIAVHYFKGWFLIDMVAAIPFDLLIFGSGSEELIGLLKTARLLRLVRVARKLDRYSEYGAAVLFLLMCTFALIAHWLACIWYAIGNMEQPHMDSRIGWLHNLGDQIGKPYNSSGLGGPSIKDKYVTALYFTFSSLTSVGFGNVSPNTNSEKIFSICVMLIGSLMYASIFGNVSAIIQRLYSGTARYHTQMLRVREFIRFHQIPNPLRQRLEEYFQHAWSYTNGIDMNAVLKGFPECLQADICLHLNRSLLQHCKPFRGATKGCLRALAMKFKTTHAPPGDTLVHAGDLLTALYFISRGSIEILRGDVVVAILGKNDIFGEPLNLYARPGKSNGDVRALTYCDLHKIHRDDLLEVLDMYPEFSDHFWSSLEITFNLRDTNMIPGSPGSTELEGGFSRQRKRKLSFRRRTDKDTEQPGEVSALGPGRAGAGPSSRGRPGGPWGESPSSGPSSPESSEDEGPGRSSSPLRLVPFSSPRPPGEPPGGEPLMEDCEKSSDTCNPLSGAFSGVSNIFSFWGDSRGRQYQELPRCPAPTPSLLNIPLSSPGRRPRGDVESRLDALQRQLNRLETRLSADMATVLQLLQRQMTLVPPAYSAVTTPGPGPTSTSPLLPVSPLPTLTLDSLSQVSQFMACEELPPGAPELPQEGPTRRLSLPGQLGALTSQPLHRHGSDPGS
Structure (SMILES),target or system,test,system,setting,how to read,endpoint,result
COc1cc2c(c(O)c1OC)C(=O)c1c(cc(C)c(O)c1OC)C2=O,HepaRG co-cultured with HK-2,MTT,,"16.67 µM, 24 h",relative to: untreated control,cell viability,88.8 ± 10.6%
CC(C)(C)[C@@H]1NC(=O)O[C@@H]2CCC[C@H]2OC/C=C/C(F)(F)c2nc3ccccc3nc2O[C@@H]2C[C@@H](C(=O)N[C@]3(C(=O)NS(=O)(=O)C4(C)CC4)C[C@H]3C(F)F)N(C2)C1=O,CYP3A7,fluorescence,recombinant bactosomes,"20 µM, 10 min, pH 7.4, together with: dibenzylfluorescein at Km",relative to: solvent control,remaining activity,~35%
CC[C@H](C)[C@H](NC(=O)[C@H](CO)NC(=O)[C@H](Cc1ccc(O)cc1)NC(=O)[C@H](CC(=O)O)NC(=O)[C@H](CO)NC(=O)[C@@H](NC(=O)[C@H](Cc1ccccc1)NC(=O)[C@@H](NC(=O)CNC(=O)[C@H](CCC(=O)O)NC(=O)[C@H](C)NC(=O)[C@H](Cc1ccc(O)cc1)NCC(F)(F)F)[C@@H](C)O)[C@@H](C)CC)C(=O)N[C@@H](C)C(=O)N[C@@H](CCSC)C(=O)N[C@@H](CC(=O)O)C(=O)N[C@@H](CCCCN)C(=O)N[C@H](C(=O)N[C@@H](Cc1c[nH]cn1)C(=O)N[C@@H](CCC(N)=O)C(=O)N[C@@H](CCCCNC(=O)COCCOCCNC(=O)COCCOCCNC(=O)CC[C@H](NC(=O)CCCCCCCCCCCCCCCCC(=O)O)C(=O)O)C(=O)N[C@@H](CC(=O)O)C(=O)N[C@@H](Cc1ccccc1)C(=O)N[C@H](C(=O)N[C@@H](CC(N)=O)C(=O)N[C@@H](Cc1c[nH]c2ccccc12)C(=O)N[C@@H](CC(C)C)C(=O)N[C@@H](CC(C)C)C(=O)N[C@@H](C)C(=O)N[C@@H](CCC(N)=O)C(=O)N[C@@H](CCCCN)C(=O)NCC(=O)N[C@@H](CCCCN)C(=O)N[C@@H](CCCCN)C(=O)N[C@@H](CC(N)=O)C(=O)N[C@@H](CC(=O)O)C(=O)N[C@@H](Cc1c[nH]c2ccccc12)C(=O)N[C@@H](CCCCN)C(=O)N[C@@H](Cc1c[nH]cn1)C(=O)N[C@@H](CC(N)=O)C(=O)N[C@H](C(=O)N[C@H](C(=O)N[C@@H](CCC(N)=O)C(=O)O)[C@@H](C)O)[C@@H](C)CC)C(C)C)[C@@H](C)CC,Trypsin,"LC-MS, item: fragment 1-32",,"18 h, pH 8.0, 37 °C, together with: trypsin 2.5 mg/mL",,fragment formed,7%
CC[C@H]1[C@@H](O)[C@@H]2[C@H](CC[C@]3(C)[C@@H]([C@H](C)CCNC(=O)NS(=O)(=O)c4ccc(C(C)(C)C)cc4)CC[C@@H]23)[C@@]2(C)CC[C@@H](O)C[C@@H]12,"Cytochrome P450 3A4 (CYP3A4, Homo sapiens, UniProt P08684)",,"human, plasma","dose not given, mean, together with: fluconazole",,AUC(0-t),1600 ng·h/mL
Cc1cnc(C(=O)N[C@H]2CCCCC/C=C\[C@@H]3C[C@@]3(C(=O)NS(=O)(=O)C3CC3)NC(=O)[C@@H]3C[C@@H](Oc4nc5ccccc5c5ccccc45)CN3C2=O)cn1,CYP3A7,"time-dependent inhibitor, 16α-hydroxylation of DHEA-S",recombinant bactosomes,"preincubation, with NADPH, 0 min, pH 7.4, together with: DHEA-S 50 µM",,kinact,0.000159 s⁻¹
O=C(c1ccc(C(=O)N2CCC(N3CCCC3)CC2)c(Nc2ccccc2)c1)N1CCC(N2CCCC2)CC1,"Lethal(3)malignant brain tumor-like protein 3, MBT domains (Homo sapiens, UniProt Q96JM7)",FRAP,human cells,0.5 µM,,FRAP recovery half-time,3.4 s
CC1(C)CCC2(CC1)N[C@@H](C(=O)N[C@@H]1CC[C@@H](C(N)=O)OC1)[C@H](c1ccnc(Cl)c1F)[C@]21C(=O)Nc2cc(Cl)ccc21,"ABCB1 (Homo sapiens, UniProt P08183)",,Caco-2 monolayers,"3 µM, 120 min, no inhibitor",,Papp B to A,17.5 ×10⁻⁶ cm/s
C=C[C@@H]1C[C@]1(NC(=O)[C@@H]1C[C@@H](Oc2ncc(OC)c3ccc(Cl)cc23)CN1C(=O)[C@@H](NC(=O)OC(C)(C)C)C(C)(C)C)C(=O)NS(=O)(=O)C1CC1,CYP3A7,fluorescence,recombinant bactosomes,"20 µM, 10 min, pH 7.4, together with: dibenzylfluorescein at Km",relative to: solvent control,remaining activity,~35%
CC(C)C[C@H](NC(=O)CNC(=O)[C@H](C)NC(=O)[C@H](CC(C)C)NC(=O)[C@H](CC(N)=O)NC(=O)[C@H](Cc1c[nH]c2ccccc12)NC(=O)[C@@H](NC(=O)[C@H](Cc1ccc(O)cc1)NC(=O)[C@H](Cc1ccc(O)cc1)NC(=O)[C@H](CO)NC(=O)[C@H](CCCNC(=N)N)NC(=O)[C@H](Cc1c[nH]cn1)NC(=O)[C@@H](N)Cc1c[nH]c2ccccc12)[C@@H](C)O)C(=O)N[C@H](C(=O)NCC(=O)N[C@@H](CCCCN)C(=O)O)C(C)C,MMP-2 human recombinant,UPLC-Q-TOF MS,,"2 h, pH 7.5, 37 °C, together with: MMP-2 5 ng/µL",,cleaved fraction,87.7%
O=C1c2cccc(O)c2C(=O)c2c(O)cc(CO)cc21,HepaRG co-cultured with HK-2,MTT,,"66.67 µM, 24 h",relative to: untreated control,cell viability,105 ± 7.63%
CN1C[C@@H]2C[C@H]1CN2c1cc2c(cc1F)c(=O)c(C(=O)O)cn2C1CC1,ABCG2 (sheep),"basolateral-to-apical transport, transepithelial transport","MDCK-II transduced with ovine ABCG2, HBSS with HEPES","10 µM, 4 h",,percent transported,54.7 ± 5.54%
CC1=C[C@H](O)CC(C)(C)[C@H]1/C=C/C(C)=C/C=C/C(C)=C/C=C/C=C(C)/C=C/C=C(C)/C=C/C1=C(C)C[C@@H](O)CC1(C)C,"Beta-lactoglobulin (LGB, Bos taurus, UniProt P02754)",,protein-carotenoid complex,298 K,,zeta potential,-9.33 ± 0.3 mV
COCCOCc1ccc(-c2cc3onc(-c4ccccc4)c3c(=O)n2C)cc1,COS-7,,,"3 µM, 24 h, 0.1% DMSO, unit not given",relative to: vehicle control,apoptotic cells,0.88 ± 0.03
CCCCC1=NC2(CCCC2)C(=O)N1Cc1ccc(-c2ccccc2S(=O)(=O)Nc2noc(C)c2C)c(COCC)c1,CYP2C9,"enzyme induction, inducer",human,,,EC50,2.25 µM
C=CC(=O)N1C[C@H](Nc2ncnc3[nH]ccc23)CC[C@@H]1C,CYP3A,substrate,"human, plasma","oral, 30 mg single dose, cpd alone",,Cmax,153 ng/mL
CC[C@H](CO)N(CCN(N=O)[C@H](CC)CO)N=O,Salmonella typhimurium,plate incorporation,"TA1535, water","1500 µg/plate, without S9",,revertant colonies per plate,29.3 ± 5
COc1ccc(Cl)cc1C(=O)NCCc1ccc(S(=O)(=O)NC(=O)NC2CCCCC2)cc1,P-gp and Bcrp,,"Sprague-Dawley rats, brain","intravenous infusion, 0.05 mg/kg/h, 4 h, together with: elacridar 0.009 mg/kg/h",relative to: Kp without over with elacridar,efflux ratio,1.4
CC[C@H](C)[C@H](NC(=O)[C@H](CO)NC(=O)[C@H](Cc1ccc(O)cc1)NC(=O)[C@H](CC(=O)O)NC(=O)[C@H](CO)NC(=O)[C@@H](NC(=O)[C@H](Cc1ccccc1)NC(=O)[C@@H](NC(=O)CNC(=O)[C@H](CCC(=O)O)NC(=O)[C@H](C)NC(=O)[C@@H](N)Cc1ccc(O)cc1)[C@@H](C)O)[C@@H](C)CC)C(=O)N[C@@H](C)C(=O)N[C@@H](CCSC)C(=O)N[C@@H](CC(=O)O)C(=O)N[C@@H](CCCCN)C(=O)N[C@H](C(=O)N[C@@H](Cc1c[nH]cn1)C(=O)N[C@@H](CCC(N)=O)C(=O)N[C@@H](CCC(N)=O)C(=O)N[C@@H](CC(=O)O)C(=O)N[C@@H](Cc1ccccc1)C(=O)N[C@H](C(=O)N[C@@H](CC(N)=O)C(=O)N[C@@H](Cc1c[nH]c2ccccc12)C(=O)N[C@@H](CC(C)C)C(=O)N[C@@H](CC(C)C)C(=O)N[C@@H](C)C(=O)N[C@@H](CCC(N)=O)C(=O)N[C@@H](CCCCN)C(=O)NCC(=O)N[C@@H](CCCCN)C(=O)N[C@@H](CCCCN)C(=O)N[C@@H](CC(N)=O)C(=O)N[C@@H](CC(=O)O)C(=O)N[C@@H](Cc1c[nH]c2ccccc12)C(=O)N[C@@H](CCCCN)C(=O)N[C@@H](Cc1c[nH]cn1)C(=O)N[C@@H](CC(N)=O)C(=O)N[C@H](C(=O)N[C@H](C(=O)N[C@@H](CCC(N)=O)C(=O)O)[C@@H](C)O)[C@@H](C)CC)C(C)C)[C@@H](C)CC,Trypsin,"LC-MS, item: fragment 1-33",,"18 h, pH 8.0, 37 °C, together with: trypsin 2.5 mg/mL",,fragment formed,13%
CN(C)CCCN1c2ccccc2CCc2ccccc21,UGT1A4,"glucuronidation, inhibitor, LC-MS",recombinant human supersomes,"concentration not given, 180 min, pH 7.4, together with: UGT1A4-specific substrate 50 µM",relative to: DMSO,inhibition,~20%
O=C(O)COc1cccc(-c2nc(Nc3ccc4[nH]ncc4c3)c3ccccc3n2)c1,UGT1A4,"enzyme activity, inhibitor",,together with: diclofenac,,IC50,46.6 µM
CCN1CCN(c2cc(N3CCN(CC)CC3)nc(NCCNc3ccnc4cc(Cl)ccc34)n2)CC1,COS-7,,,"10 µM, 24 h, 0.1% DMSO, unit not given",relative to: vehicle control,apoptotic cells,1.43 ± 0.82
Cc1oc2ccccc2c1Cc1cc(I)c(OCC(=O)O)c(I)c1,"KCNH2 (Homo sapiens, UniProt Q12809)","potassium current, whole-cell patch clamp",HEK293 expressing hERG1,"10 µM, envelope-of-tails at +40 mV, 10 mM K+",relative to: control,activation rate acceleration,2.4 fold
